Measurements pooled from the literature.
Protocols differ between the studies behind these lines. ± gives the spread as reported.
Organism: Acinetobacter baumannii

With `C/C(=C\c1ccc(O)cc1)C(=O)Nc1ccc(C(=O)N[C@@H](Cc2c[nH]nn2)C(=O)Nc2ccc(C(=O)Nc3ccc(C(=O)Nc4ccc(C(=O)O)cc4)c(O)c3)cc2)cc1` the MIC was 4 µg/mL (broth microdilution; ciprofloxacin-resistant).
With `CC(C)C[C@H](NC(=O)[C@H](Cc1ccc(O)cc1)NC(=O)[C@@H]1CCCN1C(=O)[C@H](CCCNC(=N)N)NC(=O)[C@@H]1CCCN1C(=O)[C@H](CCCCN)NC(=O)[C@H](CC(=O)O)NC(=O)[C@@H]1CCCN1C(=O)[C@H](CCCNC(=N)N)NC(=O)C1(N)CCCCC1)C(=O)N1CCC[C@H]1C(=O)N[C@@H](CCCNC(=N)N)C(=O)N1CCC[C@H]1C(=O)N[C@@H](CCCNC(=N)N)C(=O)N1CCC[C@H]1C(=O)N1CCC[C@H]1C(=O)N[C@@H](CCCNC(=N)N)C(=O)N1CCC[C@H]1C(=O)N[C@H](C(=O)N[C@@H](CCCNC(=N)N)C(=O)N[C@@H](CSCc1cccc(CSC[C@H](NC(=O)[C@H](CCCNC(=N)N)NC(=O)[C@@H](NC(=O)[C@@H]2CCCN2C(=O)[C@H](CCCNC(=N)N)NC(=O)[C@@H]2CCCN2C(=O)[C@@H]2CCCN2C(=O)[C@H](CCCNC(=N)N)NC(=O)[C@@H]2CCCN2C(=O)[C@H](CCCNC(=N)N)NC(=O)[C@@H]2CCCN2C(=O)[C@H](CC(C)C)NC(=O)[C@H](Cc2ccc(O)cc2)NC(=O)[C@@H]2CCCN2C(=O)[C@H](CCCNC(=N)N)NC(=O)[C@@H]2CCCN2C(=O)[C@H](CCCCN)NC(=O)[C@H](CC(=O)O)NC(=O)[C@@H]2CCCN2C(=O)[C@H](CCCNC(=N)N)NC(=O)C2(N)CCCCC2)C(C)C)C(=O)NN)c1)C(=O)NN)C(C)C` the MDC was 23.7 ± 0.7 µg/mL (membrane disruption, propidium iodide uptake; 19606; 90 min, 37 °C).
`CC(NC(=O)c1ccccc1)C(CCCCCCCCCCCCCCC(=O)CCCCCCCC(OC(=O)c1ccccc1)C(C)NC(=O)c1ccccc1)OC(=O)c1ccccc1` (stereo not shown) gave a growth inhibition of 0 ± 7.06% (resazurin; ATCC 19606; 50 µM).
The MIC of `CCCCCCn1cc[n+](CCCCOc2cc(OCCCC[n+]3ccn(CCCCCC)c3)cc(OCCCC[n+]3ccn(CCCCCC)c3)c2)c1.[Br-].[Br-].[Br-]` is reported as 250 µM (ATCC 17978).
For `CC(C)C[C@H](NC(=O)[C@H](Cc1ccc(O)cc1)NC(=O)[C@@H]1CCCN1C(=O)[C@H](CCCNC(=N)N)NC(=O)[C@@H]1CCCN1C(=O)[C@H](CCCCN)NC(=O)[C@H](CC(=O)O)NC(=O)[C@@H]1CCCN1C(=O)[C@H](CCCNC(=N)N)NC(=O)C1(N)CCCCC1)C(=O)N1CCC[C@H]1C(=O)N[C@@H](CCCNC(=N)N)C(=O)N1CCC[C@H]1C(=O)N[C@@H](CCCNC(=N)N)C(=O)N1CCC[C@H]1C(=O)N1CCC[C@H]1C(=O)N[C@@H](CCCNC(=N)N)C(=O)N1CCC[C@H]1C(=O)N[C@H](C(=O)N[C@@H](CCCNC(=N)N)C(=O)N[C@@H](CSCc1ccc(CSC[C@H](NC(=O)[C@H](CCCNC(=N)N)NC(=O)[C@@H](NC(=O)[C@@H]2CCCN2C(=O)[C@H](CCCNC(=N)N)NC(=O)[C@@H]2CCCN2C(=O)[C@@H]2CCCN2C(=O)[C@H](CCCNC(=N)N)NC(=O)[C@@H]2CCCN2C(=O)[C@H](CCCNC(=N)N)NC(=O)[C@@H]2CCCN2C(=O)[C@H](CC(C)C)NC(=O)[C@H](Cc2ccc(O)cc2)NC(=O)[C@@H]2CCCN2C(=O)[C@H](CCCNC(=N)N)NC(=O)[C@@H]2CCCN2C(=O)[C@H](CCCCN)NC(=O)[C@H](CC(=O)O)NC(=O)[C@@H]2CCCN2C(=O)[C@H](CCCNC(=N)N)NC(=O)C2(N)CCCCC2)C(C)C)C(=O)NN)cc1)C(=O)NN)C(C)C`, the MDC was 21.1 ± 0.6 µg/mL (membrane disruption, propidium iodide uptake; 19606; 90 min, 37 °C).
`CC1(C)C(NC(=O)C(=NOCC(=O)N2CC3CCCC3C2C(=O)O)c2csc(N)n2)C(=O)N1OS(=O)(=O)O` (stereo not shown) gave an MIC of greater than 64 µg/mL (agar dilution; 16-16).
For `c1ccc(CSc2nc3ccccc3cc2CNCCC2CCN(C3CCCC3)CC2)cc1`, the inhibition was 14% (NADH-driven proton pumping, ACMA quenching; inverted membrane vesicles; 2 µg/mL).
The MDC of `CC(C)C[C@H](NC(=O)[C@H](Cc1ccc(O)cc1)NC(=O)[C@@H]1CCCN1C(=O)[C@H](CCCNC(=N)N)NC(=O)[C@@H]1CCCN1C(=O)[C@H](CCCCN)NC(=O)[C@H](CC(=O)O)NC(=O)[C@@H]1CCCN1C(=O)[C@H](CCCNC(=N)N)NC(=O)C1(N)CCCCC1)C(=O)N1CCC[C@H]1C(=O)N[C@@H](CCCNC(=N)N)C(=O)N1CCC[C@H]1C(=O)N[C@@H](CCCNC(=N)N)C(=O)N1CCC[C@H]1C(=O)N1CCC[C@H]1C(=O)N[C@@H](CCCNC(=N)N)C(=O)N1CCC[C@H]1C(=O)N[C@H](C(=O)N[C@@H](CCCNC(=N)N)C(=O)N[C@@H](CSCc1ccccc1CSC[C@H](NC(=O)[C@H](CCCNC(=N)N)NC(=O)[C@@H](NC(=O)[C@@H]1CCCN1C(=O)[C@H](CCCNC(=N)N)NC(=O)[C@@H]1CCCN1C(=O)[C@@H]1CCCN1C(=O)[C@H](CCCNC(=N)N)NC(=O)[C@@H]1CCCN1C(=O)[C@H](CCCNC(=N)N)NC(=O)[C@@H]1CCCN1C(=O)[C@H](CC(C)C)NC(=O)[C@H](Cc1ccc(O)cc1)NC(=O)[C@@H]1CCCN1C(=O)[C@H](CCCNC(=N)N)NC(=O)[C@@H]1CCCN1C(=O)[C@H](CCCCN)NC(=O)[C@H](CC(=O)O)NC(=O)[C@@H]1CCCN1C(=O)[C@H](CCCNC(=N)N)NC(=O)C1(N)CCCCC1)C(C)C)C(=O)NN)C(=O)NN)C(C)C` is reported as 25.7 ± 1 µg/mL (membrane disruption, propidium iodide uptake; 19606; 90 min, 37 °C).
Under “log10 CFU reduction”, `Cc1ccnc(-c2cc(C(=O)NCCCCCC(=O)N[C@@H](CCCNC(=N)N)C(=O)N[C@@H](CCCNC(=N)N)C(=O)N[C@@H](Cc3c[nH]c4ccccc34)C(=O)N[C@@H](Cc3c[nH]c4ccccc34)C(=O)N[C@@H](CCCNC(=N)N)C(=O)N[C@@H](Cc3c[nH]c4ccccc34)C(=O)N[C@@H](Cc3c[nH]c4ccccc34)C(=O)N[C@@H](CCCNC(=N)N)C(N)=O)ccn2)c1` is recorded as “no effect” (colony counting; resistant; concentration not given, light irradiation; baseline: non-irradiated).
The inhibition of `CCN1CCC(CCNCc2cc3ccccc3nc2SCc2ccccc2)CC1` is reported as 3% (NADH-driven proton pumping, ACMA quenching; inverted membrane vesicles; 2 µg/mL).

Excerpt of the above:
`CC1(C)C(NC(=O)C(=NOCC(=O)N2CC3CCCC3C2C(=O)O)c2csc(N)n2)C(=O)N1OS(=O)(=O)O` (stereo not shown) gave an MIC of greater than 64 µg/mL (agar dilution; 16-16).
